# Assay results from different studies.
# Each numbered part is a random draw from the data of one study; scales do not carry over between parts.
# Sequence of UniProt P30291 (whole entry, looked up): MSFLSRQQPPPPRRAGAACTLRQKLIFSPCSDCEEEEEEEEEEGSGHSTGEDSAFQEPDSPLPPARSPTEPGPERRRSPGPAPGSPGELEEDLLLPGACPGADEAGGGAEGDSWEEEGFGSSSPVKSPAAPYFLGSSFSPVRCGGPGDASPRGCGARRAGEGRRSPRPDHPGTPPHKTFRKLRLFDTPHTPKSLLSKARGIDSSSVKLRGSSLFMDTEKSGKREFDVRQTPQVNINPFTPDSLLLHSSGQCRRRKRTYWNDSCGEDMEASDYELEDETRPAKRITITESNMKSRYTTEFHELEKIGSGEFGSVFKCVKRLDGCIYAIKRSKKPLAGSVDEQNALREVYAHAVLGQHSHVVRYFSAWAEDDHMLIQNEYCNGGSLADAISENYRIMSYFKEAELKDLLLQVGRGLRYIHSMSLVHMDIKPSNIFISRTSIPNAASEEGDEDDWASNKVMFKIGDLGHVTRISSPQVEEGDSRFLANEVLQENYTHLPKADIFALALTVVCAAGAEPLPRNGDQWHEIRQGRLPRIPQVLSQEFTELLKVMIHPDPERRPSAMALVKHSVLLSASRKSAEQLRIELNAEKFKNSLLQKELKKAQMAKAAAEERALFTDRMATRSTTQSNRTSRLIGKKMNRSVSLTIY
# Sequence of UniProt P06239 (whole entry, looked up): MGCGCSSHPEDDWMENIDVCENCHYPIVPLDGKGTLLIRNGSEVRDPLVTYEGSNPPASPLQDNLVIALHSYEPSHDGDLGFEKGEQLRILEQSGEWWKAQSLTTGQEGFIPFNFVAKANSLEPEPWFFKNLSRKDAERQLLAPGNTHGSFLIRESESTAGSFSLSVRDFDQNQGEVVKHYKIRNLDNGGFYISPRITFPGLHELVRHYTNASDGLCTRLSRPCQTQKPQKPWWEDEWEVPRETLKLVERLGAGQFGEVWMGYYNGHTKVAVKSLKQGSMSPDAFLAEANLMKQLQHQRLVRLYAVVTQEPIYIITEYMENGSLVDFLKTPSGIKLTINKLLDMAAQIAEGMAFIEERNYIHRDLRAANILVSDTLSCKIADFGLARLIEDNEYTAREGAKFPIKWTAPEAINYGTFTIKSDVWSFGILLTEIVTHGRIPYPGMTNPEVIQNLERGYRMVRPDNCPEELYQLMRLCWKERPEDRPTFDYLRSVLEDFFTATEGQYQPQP
# Sequence of UniProt Q9ZSY8 (whole entry, looked up): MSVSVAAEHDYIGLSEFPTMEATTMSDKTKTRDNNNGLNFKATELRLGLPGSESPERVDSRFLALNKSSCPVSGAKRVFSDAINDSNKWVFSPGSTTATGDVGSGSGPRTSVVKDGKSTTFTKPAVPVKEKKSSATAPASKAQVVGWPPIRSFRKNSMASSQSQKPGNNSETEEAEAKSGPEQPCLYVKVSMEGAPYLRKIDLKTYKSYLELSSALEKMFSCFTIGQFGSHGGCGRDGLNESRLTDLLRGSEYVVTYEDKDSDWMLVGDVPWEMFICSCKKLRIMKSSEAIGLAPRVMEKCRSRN
# Sequence of UniProt Q9H3Y6 (whole entry, looked up): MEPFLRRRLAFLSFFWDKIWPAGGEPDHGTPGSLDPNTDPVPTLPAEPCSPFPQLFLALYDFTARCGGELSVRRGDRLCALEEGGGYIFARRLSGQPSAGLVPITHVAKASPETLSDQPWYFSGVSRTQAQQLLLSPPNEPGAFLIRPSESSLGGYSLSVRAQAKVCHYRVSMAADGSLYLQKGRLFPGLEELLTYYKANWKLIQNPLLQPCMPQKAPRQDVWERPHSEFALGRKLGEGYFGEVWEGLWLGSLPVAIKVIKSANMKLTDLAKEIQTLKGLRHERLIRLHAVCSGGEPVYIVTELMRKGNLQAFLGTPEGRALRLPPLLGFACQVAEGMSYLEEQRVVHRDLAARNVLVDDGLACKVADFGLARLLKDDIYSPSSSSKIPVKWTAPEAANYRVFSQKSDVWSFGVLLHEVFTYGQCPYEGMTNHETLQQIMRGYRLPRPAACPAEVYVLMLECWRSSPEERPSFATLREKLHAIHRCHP
# Sequence of UniProt P49137 (whole entry, looked up): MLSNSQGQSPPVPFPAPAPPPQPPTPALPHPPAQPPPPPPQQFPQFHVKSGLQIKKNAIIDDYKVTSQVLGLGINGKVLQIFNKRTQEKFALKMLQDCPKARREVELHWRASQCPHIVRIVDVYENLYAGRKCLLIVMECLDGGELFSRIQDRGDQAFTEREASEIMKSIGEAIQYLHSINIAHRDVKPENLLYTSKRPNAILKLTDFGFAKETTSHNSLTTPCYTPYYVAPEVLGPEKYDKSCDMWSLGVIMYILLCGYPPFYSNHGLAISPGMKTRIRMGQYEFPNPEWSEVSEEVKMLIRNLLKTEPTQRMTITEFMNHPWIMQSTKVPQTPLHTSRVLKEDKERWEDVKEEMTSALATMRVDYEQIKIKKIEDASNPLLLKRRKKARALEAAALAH
# Sequence of UniProt Q9H422 (whole entry, looked up): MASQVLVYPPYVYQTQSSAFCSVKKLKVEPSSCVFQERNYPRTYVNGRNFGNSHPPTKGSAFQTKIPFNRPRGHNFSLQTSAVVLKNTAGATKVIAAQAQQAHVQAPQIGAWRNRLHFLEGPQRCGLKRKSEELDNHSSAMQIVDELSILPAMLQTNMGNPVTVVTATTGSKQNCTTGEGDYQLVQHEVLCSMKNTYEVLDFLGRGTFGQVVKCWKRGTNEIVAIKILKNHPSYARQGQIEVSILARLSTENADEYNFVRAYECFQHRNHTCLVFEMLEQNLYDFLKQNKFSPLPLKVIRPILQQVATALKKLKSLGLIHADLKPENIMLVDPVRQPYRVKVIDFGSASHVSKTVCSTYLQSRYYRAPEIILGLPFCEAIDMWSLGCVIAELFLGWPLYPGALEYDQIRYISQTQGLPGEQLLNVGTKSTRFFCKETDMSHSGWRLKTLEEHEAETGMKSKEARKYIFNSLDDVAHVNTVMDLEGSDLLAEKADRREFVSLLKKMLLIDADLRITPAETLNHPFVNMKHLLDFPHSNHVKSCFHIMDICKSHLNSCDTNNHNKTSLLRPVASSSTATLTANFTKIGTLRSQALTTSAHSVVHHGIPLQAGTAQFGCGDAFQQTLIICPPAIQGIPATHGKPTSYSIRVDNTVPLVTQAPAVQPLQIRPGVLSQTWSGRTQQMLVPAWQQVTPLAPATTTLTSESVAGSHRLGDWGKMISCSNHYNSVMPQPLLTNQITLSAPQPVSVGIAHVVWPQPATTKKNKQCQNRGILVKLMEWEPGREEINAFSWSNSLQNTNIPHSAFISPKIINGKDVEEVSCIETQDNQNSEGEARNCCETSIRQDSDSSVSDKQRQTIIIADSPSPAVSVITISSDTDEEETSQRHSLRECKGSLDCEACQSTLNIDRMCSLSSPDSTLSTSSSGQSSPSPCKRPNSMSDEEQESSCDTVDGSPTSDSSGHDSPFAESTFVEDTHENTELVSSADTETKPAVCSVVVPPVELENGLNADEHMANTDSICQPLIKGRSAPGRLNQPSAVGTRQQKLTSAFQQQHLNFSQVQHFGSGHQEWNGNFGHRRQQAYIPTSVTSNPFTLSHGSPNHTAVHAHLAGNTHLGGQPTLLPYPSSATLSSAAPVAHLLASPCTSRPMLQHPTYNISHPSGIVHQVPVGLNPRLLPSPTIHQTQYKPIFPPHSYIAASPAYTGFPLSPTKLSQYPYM
# Sequence of UniProt P52333 (whole entry, looked up): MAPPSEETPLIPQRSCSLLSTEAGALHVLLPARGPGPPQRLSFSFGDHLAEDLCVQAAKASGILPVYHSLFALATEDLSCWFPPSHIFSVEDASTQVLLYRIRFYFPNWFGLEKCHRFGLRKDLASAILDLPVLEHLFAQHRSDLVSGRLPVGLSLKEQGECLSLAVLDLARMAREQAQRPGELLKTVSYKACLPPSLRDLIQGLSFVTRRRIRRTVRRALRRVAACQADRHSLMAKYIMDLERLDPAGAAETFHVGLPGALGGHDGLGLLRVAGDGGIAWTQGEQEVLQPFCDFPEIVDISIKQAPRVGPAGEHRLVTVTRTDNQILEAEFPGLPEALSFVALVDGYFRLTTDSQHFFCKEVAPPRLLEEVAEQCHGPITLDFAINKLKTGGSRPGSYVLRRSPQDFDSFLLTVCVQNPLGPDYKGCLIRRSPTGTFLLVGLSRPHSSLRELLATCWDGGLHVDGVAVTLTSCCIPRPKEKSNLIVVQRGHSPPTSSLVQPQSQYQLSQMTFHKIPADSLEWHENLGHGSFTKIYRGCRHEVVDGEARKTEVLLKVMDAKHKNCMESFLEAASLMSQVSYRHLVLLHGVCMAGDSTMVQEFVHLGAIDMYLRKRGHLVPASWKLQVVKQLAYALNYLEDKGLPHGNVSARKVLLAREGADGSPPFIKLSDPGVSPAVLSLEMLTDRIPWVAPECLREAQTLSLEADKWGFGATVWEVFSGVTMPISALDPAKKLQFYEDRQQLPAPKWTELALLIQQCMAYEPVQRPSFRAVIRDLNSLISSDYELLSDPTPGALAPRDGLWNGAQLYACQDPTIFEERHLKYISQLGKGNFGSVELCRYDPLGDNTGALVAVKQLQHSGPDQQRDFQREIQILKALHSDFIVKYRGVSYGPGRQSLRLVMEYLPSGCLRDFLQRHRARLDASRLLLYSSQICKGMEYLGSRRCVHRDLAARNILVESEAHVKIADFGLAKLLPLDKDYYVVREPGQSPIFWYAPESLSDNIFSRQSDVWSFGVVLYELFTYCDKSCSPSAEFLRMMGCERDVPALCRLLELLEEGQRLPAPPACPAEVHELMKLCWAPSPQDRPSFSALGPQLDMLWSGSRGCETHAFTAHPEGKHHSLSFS

# Series 1 — read-out: cell-free assay; method: competition with immobilised ligand; concentration: 0.1 µM
# SMILES: C[C@@H]1CN(c2cc(-c3n[nH]c4ccc(OC5(C)CC5)cc34)ncn2)C[C@H](C)O1
target,remaining binding
"Dual specificity mitogen-activated protein kinase kinase 7 (MAP2K7, Homo sapiens, UniProt O14733)",77%
"Wee1-like protein kinase (WEE1, Homo sapiens, UniProt P30291)",97%
"Tyrosine-protein kinase Srms (SRMS, Homo sapiens, UniProt Q9H3Y6)",59%
"Homeodomain-interacting protein kinase 3 (HIPK3, Homo sapiens, UniProt Q9H422)",73%

# Series 2 — method: DNA-protein interaction ELISA; form: double-stranded DNA, one strand shown; matrix: in vitro, bacterial lysate; concentration: not given; notes: whole dsDNA probe, crude lysate protein; baseline: highest signal in screen; direction: higher = stronger binding
# Target: Probable WRKY transcription factor 11, DNA-binding domain (WRKY11, Arabidopsis thaliana, UniProt Q9SV15, residues 228-325)
# Target sequence (chain): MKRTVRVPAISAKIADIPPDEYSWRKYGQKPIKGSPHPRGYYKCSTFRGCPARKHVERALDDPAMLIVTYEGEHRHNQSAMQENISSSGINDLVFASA
Strand,relative absorbance
AAAAAAGGAAGTACTGACGATCTGGAAAAA,14.7 % of maximum
AAAAAAGGTAATGCCGGTCCCAGTATAAAA,13.5 % of maximum
AAAAAACCCGTTCTACCTTATTCCTGAAAA,13 % of maximum
AAAAAAGCTGTCACTGTAGTCGGTCCAAAA,17.9 % of maximum
AAAAAACACTTAACTGAGTGGGATTGAAAA,17.6 % of maximum
AAAAAAATGTTCAAGCTCGATCTACAAAAA,15.6 % of maximum
AAAAAATGTTGTTGCTGTTGGTCCTAAAAA,18.4 % of maximum
AAAAAAAGTGGCCGCTAGTCAACTCAAAAA,91.9 % of maximum

# Series 3 — Compound: COc1ccc(OC)c2c(=S)c3ccccc3[nH]c12; read-out: enzyme activity; mode: inhibitor; concentration: 0.5 µM; baseline: control
target,remaining activity [%]
"Fibroblast growth factor receptor 1 (FGFR1, Homo sapiens, UniProt P11362)",89.6
"Tyrosine-protein kinase FRK (FRK, Homo sapiens, UniProt P42685)",88.8
"Mitogen-activated protein kinase kinase kinase 5 (MAP3K5, Homo sapiens, UniProt Q99683)",115
"Serine/threonine-protein kinase Nek1 (NEK1, Homo sapiens, UniProt Q96PY6)",102
"Tyrosine-protein kinase JAK3 (JAK3, Homo sapiens, UniProt P52333)",96.7
"Tyrosine-protein kinase Mer (MERTK, Homo sapiens, UniProt Q12866)",86.7
"Tyrosine-protein kinase Lck (LCK, Homo sapiens, UniProt P06239)",94.7
"Wee1-like protein kinase (WEE1, Homo sapiens, UniProt P30291)",102
"Ephrin type-A receptor 3 (EPHA3, Homo sapiens, UniProt P29320)",94.9
"MAP kinase-activated protein kinase 2 (MAPKAPK2, Homo sapiens, UniProt P49137)",94.6

# Mixed results — method: two-hybrid; baseline: out of 4 tests; direction: higher = firmer interaction
# Partner: ARF11 500-622 (Arabidopsis thaliana, UniProt Q9ZPY6)
# B1: ARF2 727-859 (Arabidopsis thaliana, UniProt Q94JM3); chain TKTNSSRSCTKVHKQGIALGRSVDLSKFQNYEELVAELDRLFEFNGELMAPKKDWLIVYTDEENDMMLVGDDPWQEFCCMVRKIFIYTKEEVRKMNPGTLSCRSEEEAVVGEGSDAKDAKSASNPSLSSAGNS
# B2: ARF10 575-693 (Arabidopsis thaliana, UniProt Q9SKN5); chain LQGLETGHCKVFMESEDVGRTLDLSVIGSYQELYRKLAEMFHIEERSDLLTHVVYRDANGVIKRIGDEPFSDFMKATKRLTIKMDIGGDNVRKTWITGIRTGENGIDASTKTGPLSIFA
# B3: ARF7 1030-1164 (Arabidopsis thaliana, UniProt P93022); chain PAQTQRMRTYTKVQKRGSVGRSIDVNRYRGYDELRHDLARMFGIEGQLEDPQTSDWKLVYVDHENDILLVGDDPWEEFVNCVQSIKILSSAEVQQMSLDGNFAGVPVTNQACSGGDSGNAWRGHYDDNSATSFNR
# Residues used in one study (chain): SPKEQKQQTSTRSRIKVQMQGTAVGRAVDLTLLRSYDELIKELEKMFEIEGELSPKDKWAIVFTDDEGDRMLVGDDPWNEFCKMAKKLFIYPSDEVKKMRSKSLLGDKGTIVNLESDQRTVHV
Substance,positive tests
B1 (ARF2 727-859),0
"IAA27 (Arabidopsis thaliana, UniProt Q9ZSY8)",0
B2 (ARF10 575-693),0
B3 (ARF7 1030-1164),0

# Excerpt of the above (series 3):
target,remaining activity [%]
"Mitogen-activated protein kinase kinase kinase 5 (MAP3K5, Homo sapiens, UniProt Q99683)",115
"Serine/threonine-protein kinase Nek1 (NEK1, Homo sapiens, UniProt Q96PY6)",102
"Tyrosine-protein kinase JAK3 (JAK3, Homo sapiens, UniProt P52333)",96.7
